Assay results collected from several papers.
Each numbered part is a random draw from the data of one study; scales do not carry over between parts. “And” joins repeats or separate records; there may be more than shown.
Sequence of UniProt O15075 (whole entry, looked up): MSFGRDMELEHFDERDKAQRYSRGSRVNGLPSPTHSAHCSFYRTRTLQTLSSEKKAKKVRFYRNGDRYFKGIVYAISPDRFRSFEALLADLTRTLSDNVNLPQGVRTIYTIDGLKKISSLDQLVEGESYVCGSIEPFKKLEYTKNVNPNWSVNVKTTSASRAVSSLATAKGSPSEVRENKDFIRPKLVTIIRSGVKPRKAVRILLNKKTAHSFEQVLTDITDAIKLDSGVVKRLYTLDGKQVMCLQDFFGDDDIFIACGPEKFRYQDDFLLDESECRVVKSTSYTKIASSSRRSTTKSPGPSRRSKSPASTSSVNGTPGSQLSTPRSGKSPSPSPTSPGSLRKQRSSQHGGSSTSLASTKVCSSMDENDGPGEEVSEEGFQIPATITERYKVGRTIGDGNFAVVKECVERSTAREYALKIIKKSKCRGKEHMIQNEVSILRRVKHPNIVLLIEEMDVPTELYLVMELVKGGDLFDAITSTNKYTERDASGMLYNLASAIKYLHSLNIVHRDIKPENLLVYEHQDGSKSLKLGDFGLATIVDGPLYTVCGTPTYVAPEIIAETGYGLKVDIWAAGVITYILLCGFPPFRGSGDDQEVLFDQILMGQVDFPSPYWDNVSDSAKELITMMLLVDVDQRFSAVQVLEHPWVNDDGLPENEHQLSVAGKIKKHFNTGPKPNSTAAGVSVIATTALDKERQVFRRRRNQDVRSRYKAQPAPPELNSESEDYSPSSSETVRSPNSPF
Sequence of UniProt P51813 (whole entry, looked up): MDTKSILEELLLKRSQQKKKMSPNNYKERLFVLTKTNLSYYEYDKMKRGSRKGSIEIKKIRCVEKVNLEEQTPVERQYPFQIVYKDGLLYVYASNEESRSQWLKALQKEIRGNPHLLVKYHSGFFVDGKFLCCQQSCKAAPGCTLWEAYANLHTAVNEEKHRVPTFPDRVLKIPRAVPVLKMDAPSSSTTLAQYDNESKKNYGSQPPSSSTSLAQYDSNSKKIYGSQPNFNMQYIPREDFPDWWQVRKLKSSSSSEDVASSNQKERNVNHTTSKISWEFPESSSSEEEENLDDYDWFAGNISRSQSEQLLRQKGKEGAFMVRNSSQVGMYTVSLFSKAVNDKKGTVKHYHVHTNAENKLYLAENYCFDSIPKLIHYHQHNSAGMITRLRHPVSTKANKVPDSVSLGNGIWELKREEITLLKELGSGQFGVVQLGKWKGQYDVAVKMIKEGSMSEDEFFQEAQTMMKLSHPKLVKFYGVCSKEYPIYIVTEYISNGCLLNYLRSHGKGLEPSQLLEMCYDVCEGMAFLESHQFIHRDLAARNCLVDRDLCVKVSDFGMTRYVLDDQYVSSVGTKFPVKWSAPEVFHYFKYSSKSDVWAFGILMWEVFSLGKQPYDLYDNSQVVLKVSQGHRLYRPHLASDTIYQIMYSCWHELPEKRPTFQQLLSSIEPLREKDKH
Sequence of UniProt P00519 (whole entry, looked up): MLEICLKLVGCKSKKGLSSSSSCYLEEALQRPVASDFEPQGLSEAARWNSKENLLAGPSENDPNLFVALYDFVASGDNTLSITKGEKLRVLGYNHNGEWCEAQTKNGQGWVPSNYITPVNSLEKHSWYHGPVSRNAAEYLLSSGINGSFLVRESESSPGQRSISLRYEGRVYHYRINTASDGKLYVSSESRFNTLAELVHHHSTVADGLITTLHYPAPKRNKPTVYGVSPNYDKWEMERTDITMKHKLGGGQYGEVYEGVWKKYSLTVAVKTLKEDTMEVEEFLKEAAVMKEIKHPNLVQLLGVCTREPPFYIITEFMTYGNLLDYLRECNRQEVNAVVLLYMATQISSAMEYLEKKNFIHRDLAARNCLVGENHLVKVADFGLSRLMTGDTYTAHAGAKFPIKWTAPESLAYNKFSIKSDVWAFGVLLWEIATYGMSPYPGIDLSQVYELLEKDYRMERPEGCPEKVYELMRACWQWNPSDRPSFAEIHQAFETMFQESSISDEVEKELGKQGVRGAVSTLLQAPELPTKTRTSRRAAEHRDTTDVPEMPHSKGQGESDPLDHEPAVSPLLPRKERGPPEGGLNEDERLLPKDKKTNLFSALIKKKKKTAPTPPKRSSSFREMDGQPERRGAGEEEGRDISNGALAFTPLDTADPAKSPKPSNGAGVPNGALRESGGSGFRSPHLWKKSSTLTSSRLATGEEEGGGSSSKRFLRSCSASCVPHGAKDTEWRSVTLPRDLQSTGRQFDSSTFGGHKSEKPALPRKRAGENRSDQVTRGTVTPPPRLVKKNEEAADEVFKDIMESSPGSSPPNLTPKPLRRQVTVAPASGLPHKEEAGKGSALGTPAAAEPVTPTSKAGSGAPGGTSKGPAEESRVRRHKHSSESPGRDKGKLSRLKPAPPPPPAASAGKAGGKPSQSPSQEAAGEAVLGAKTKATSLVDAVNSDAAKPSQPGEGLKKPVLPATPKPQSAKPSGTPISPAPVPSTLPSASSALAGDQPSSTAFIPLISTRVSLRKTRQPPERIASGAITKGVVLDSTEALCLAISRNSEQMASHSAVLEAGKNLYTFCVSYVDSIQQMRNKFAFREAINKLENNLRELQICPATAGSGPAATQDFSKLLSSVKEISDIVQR
Sequence of UniProt Q13188 (whole entry, looked up): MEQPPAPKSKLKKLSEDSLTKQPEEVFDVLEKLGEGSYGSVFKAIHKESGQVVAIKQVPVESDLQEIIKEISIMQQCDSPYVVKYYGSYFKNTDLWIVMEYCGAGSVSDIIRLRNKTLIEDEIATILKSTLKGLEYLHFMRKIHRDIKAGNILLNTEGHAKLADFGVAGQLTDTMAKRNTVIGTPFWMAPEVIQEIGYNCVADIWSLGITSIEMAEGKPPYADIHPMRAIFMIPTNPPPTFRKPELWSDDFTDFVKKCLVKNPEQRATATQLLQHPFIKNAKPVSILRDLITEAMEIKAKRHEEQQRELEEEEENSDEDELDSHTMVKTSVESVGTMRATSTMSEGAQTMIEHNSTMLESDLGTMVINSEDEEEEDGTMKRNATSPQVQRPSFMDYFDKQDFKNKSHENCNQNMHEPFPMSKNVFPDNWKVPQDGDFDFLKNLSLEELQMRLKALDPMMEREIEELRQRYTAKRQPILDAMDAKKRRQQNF

Series 1
Target: Protein-tyrosine kinase 2-beta (PTK2B, Homo sapiens, UniProt Q14289)
Sequence of UniProt Q14289 (whole entry, looked up): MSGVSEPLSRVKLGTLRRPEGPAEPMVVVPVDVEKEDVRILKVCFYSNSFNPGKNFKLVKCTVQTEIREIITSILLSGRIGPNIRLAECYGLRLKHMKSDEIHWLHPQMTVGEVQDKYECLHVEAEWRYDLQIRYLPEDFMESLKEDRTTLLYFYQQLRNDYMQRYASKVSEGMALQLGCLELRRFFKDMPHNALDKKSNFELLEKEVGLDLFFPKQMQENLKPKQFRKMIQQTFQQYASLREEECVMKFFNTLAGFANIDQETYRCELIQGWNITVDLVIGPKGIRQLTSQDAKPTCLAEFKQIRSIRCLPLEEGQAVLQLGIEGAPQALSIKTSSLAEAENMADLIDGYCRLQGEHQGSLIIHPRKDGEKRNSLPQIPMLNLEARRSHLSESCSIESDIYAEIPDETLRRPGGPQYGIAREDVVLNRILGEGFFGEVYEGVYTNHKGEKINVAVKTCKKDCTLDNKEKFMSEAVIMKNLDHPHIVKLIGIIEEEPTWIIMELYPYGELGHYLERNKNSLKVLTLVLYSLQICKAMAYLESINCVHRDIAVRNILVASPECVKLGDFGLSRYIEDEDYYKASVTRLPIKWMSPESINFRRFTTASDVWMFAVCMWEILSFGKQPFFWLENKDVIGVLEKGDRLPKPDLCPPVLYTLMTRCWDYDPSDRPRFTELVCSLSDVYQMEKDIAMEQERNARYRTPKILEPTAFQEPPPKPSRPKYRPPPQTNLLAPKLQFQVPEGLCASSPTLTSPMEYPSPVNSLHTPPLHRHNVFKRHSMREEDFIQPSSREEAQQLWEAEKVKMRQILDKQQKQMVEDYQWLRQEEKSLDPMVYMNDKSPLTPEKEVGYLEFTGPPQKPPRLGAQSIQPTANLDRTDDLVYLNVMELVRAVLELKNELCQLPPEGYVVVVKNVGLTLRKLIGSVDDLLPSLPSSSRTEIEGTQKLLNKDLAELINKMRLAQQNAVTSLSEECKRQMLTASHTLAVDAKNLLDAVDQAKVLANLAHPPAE
Observed: enzyme activity
Mode: inhibitor
Concentration: 0.5 µM
Baseline: control
Measurement: remaining activity
O=C(Nc1cccc(Nc2nccc(Nc3cccc(C(F)(F)F)c3)n2)c1)C1CC1: 90.9%
Nc1cccc(-c2cc3c(Oc4cccc(O)c4)ncnc3[nH]2)c1: 65.6%
CN([C@@H](Cc1ccc(OS(=O)(=O)c2cccc3cnccc23)cc1)C(=O)N1CCN(c2ccccc2)CC1)S(=O)(=O)c1cccc2cnccc12: 103%
c1ccc(-c2[nH]ncc2-c2ccnc3ccccc23)nc1: 96.1%
CCN(CC)C(=O)c1ccc(Nc2nc(OCC3CCCCC3)c3[nH]cnc3n2)cc1: 48.7%
O=c1cc(-c2cccc3c2Sc2ccccc2S3)oc(N2CCOCC2)c1: 106%
Cc1cn(-c2cc(NC(=O)c3ccc(C)c(Nc4nccc(-c5cccnc5)n4)c3)cc(C(F)(F)F)c2)cn1: 94.5%
Cn1nc2c3c(cccc31)C(=O)c1ccccc1-2: 102%
COc1cc2ncnc(Nc3cccc(Cl)c3)c2cc1OC: 85.3%
O=C(NC(NC(=S)Nc1ccc(F)c([N+](=O)[O-])c1)C(Cl)(Cl)Cl)C(c1ccccc1)c1ccccc1 (stereo not shown): 102%
CCN(CC)CCNC(=O)c1c(C)[nH]c(/C=C2\C(=O)Nc3ccc(F)cc32)c1C: 38.3%
N#C/C(=C\c1ccc(O)c(O)c1)C(=O)NCc1ccccc1: 92.6%
c1ccc(-c2cnc(Nc3ccc(OCCN4CCCC4)cc3)s2)cc1: 77.2%
COc1cc2c(cc1OC)-c1[nH]nc(Nc3cccc(F)c3)c1C2: 98%
O=C1c2ccccc2-c2n[nH]c3cccc1c23: 82.2%
COc1cc2ncnc(Nc3ccc(O)c(Br)c3)c2cc1OC: 86.9%
O=C1C(Cl)=C(N2C(=O)CCC2=O)C(=O)c2ccccc21: 105%
CCN(CC)CCNC(=O)c1c(C)[nH]c(/C=C2\C(=O)Nc3ccc(Cl)cc32)c1C: 30.5%
CN(C)C[C@H]1CCn2c(c(C3=C(c4cn(C)c5ccccc45)C(=O)NC3=O)c3ccccc32)C1: 95.5%
N#Cc1c(NC(=O)c2cccc3ccccc23)sc2c1CCCC2: 108%
Ic1cccc(CSc2nnc(-c3ccncc3)o2)c1: 92.1%
CCOc1nc(NC(=O)Cc2cc(OC)ccc2OC)cc(N)c1C#N: 108%
Cc1nc2cc3nc(-c4cccs4)cnc3cc2n1C: 96.4%
Cc1cc2ncc(-c3ccccc3)nc2cc1C: 92.1%

Series 2
Host: human
Medium: microsomes or S9
Concentration: 2 µM
Time: 0.5 h
Measurement: remaining compound
N[C@@H](CC(=O)N1CCCN(Cc2ccccc2)CC1)Cc1cc(F)c(F)cc1F: 4.44%
c1ccc(C(CNc2ncccn2)c2ccccc2)cc1: 2.03%
O=C(CC(c1ccccc1)c1ccccc1)N1CCOCC1: 16.2%
CCC(NC(=O)C1=NNC(=O)CC1)c1ncccc1C (stereo not shown): > 99.9%
CC(Cc1nc2c(s1)Cc1ccccc1-2)n1cc(Cl)cn1 (stereo not shown): 0.444%
Cc1nc2c(cc1Br)nc(Cl)n2C: 15.1%
O=C1CC(c2ccccc2Cl)c2cc3c(cc2N1)CCC3 (stereo not shown): 33.3%
CCC(CN1CCN(C)CC1)NC(=O)Cc1csc(Nc2ccccc2F)n1 (stereo not shown): 50.6%
CCN(Cc1cccc(F)c1)C(=O)c1occc1CS(=O)(=O)c1ccccc1: 0.254%
Cc1cc(C)n(-c2nc(NCc3ccco3)c3c4c(sc3n2)COC(C)(C)C4)n1: 7.81%
Cc1cc(C(O)CN2CCN(c3ccc(F)cc3F)CC2)c(C)s1 (stereo not shown): 48.9%
CN1C(=O)C(O)(C2OC(C)(C)CCC2=O)c2ccccc21 (stereo not shown): 46.3%

Series 3
SMILES: CO[C@@H](C)c1c(Nc2ccc([C@@H](N(C)C(=O)C3CCS(=O)(=O)CC3)C(F)(F)F)cc2)cnc2cc(Cl)nn12
Observed: cell-free assay
Technique: competition with immobilised ligand
Concentration: 1 µM
Measurement: remaining binding
STK3 (Homo sapiens, UniProt Q13188): 100%
LRRK2 (Homo sapiens, UniProt Q5S007): 100%
DCLK1 (Homo sapiens, UniProt O15075): 75%
Receptor-type tyrosine-protein kinase FLT3, autoinhibited (FLT3, Homo sapiens, UniProt P36888): 94%
CIT (Homo sapiens, UniProt O14578): 97%
MAP3K14 (Homo sapiens, UniProt Q99558): 90%
EPHB4 (Homo sapiens, UniProt P54760): 100%
BMX (Homo sapiens, UniProt P51813): 83%
RAF1 (Homo sapiens, UniProt P04049): 100%
TNK1 (Homo sapiens, UniProt Q13470): 87%
CAMK1 (Homo sapiens, UniProt Q14012): 82%
FYN (Homo sapiens, UniProt P06241): 95%
Tyrosine-protein kinase ABL1, phosphorylated (ABL1, Homo sapiens, UniProt P00519): 59%
MAPK6 (Homo sapiens, UniProt Q16659): 91%
DDR1 (Homo sapiens, UniProt Q08345): 100%

Single results of other studies
Observed: binding
Technique: NanoBRET
Cell line: HEK293 (live)
Reading: lower = stronger binding
HRAS: GTPase HRas (HRAS, Homo sapiens, UniProt P01112)
CC(=O)N1CCN(c2nc(OC[C@@H]3CCCN3C)nc3c2CCN(c2cccc4cccc(Cl)c24)C3)C[C@@H]1CC#N
target engagement (HRAS; 0.09151 µM): 102% and 92.9% and 100%

Cn1cnc(Cn2ccc3ccc(CNCc4[nH]c5ccccc5c4[C@H]4NC(=O)c5ccc(O)cc54)cc32)c1
target engagement (GTPase KRas (KRAS, Homo sapiens, UniProt P01116, G12C); 0.3468 µM, 2 h): 11.9% and 13.1% and 13.2% and 14.1%

C=C(F)C(=O)N1CCN(c2nc(OC[C@@H]3CCCN3C)nc3c2CCN(c2cccc4cccc(Cl)c24)C3)C[C@@H]1CC#N
target engagement (GTPase HRas (HRAS, Homo sapiens, UniProt P01112, G12V); 1.301 µM): 144% and 155% and 137% and 149%

CC(C)C(=O)N1CCN(c2nc(OC[C@@H]3CCCN3C)nc3c2CCN(c2cccc4cccc(Cl)c24)C3)C[C@@H]1CC#N
target engagement (HRAS; 1.046 µM): 113% and 117% and 123%

A few entries again (series 1):
Cn1nc2c3c(cccc31)C(=O)c1ccccc1-2: 102%
COc1cc2c(cc1OC)-c1[nH]nc(Nc3cccc(F)c3)c1C2: 98%
CN([C@@H](Cc1ccc(OS(=O)(=O)c2cccc3cnccc23)cc1)C(=O)N1CCN(c2ccccc2)CC1)S(=O)(=O)c1cccc2cnccc12: 103%
CCN(CC)CCNC(=O)c1c(C)[nH]c(/C=C2\C(=O)Nc3ccc(F)cc32)c1C: 38.3%
CCN(CC)C(=O)c1ccc(Nc2nc(OCC3CCCCC3)c3[nH]cnc3n2)cc1: 48.7%
